Measured values of several laboratories.
Parts stem from different laboratories: compare values within a part only.

Set 1
Target: Hepatocyte nuclear factor 3-beta, forkhead domain (FOXA2, Homo sapiens, UniProt Q9Y261, residues 142-269)
Method: protein-binding microarray
Form: double-stranded DNA, one strand shown
Medium: in vitro
Concentration: not given
Notes: k-mer, scored over probes, only values ≥0.25
Direction: higher = stronger binding
Construct (chain): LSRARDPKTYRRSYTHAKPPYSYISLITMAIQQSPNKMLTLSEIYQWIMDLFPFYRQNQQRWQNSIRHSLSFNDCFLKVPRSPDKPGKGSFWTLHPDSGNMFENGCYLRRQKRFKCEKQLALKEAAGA
| Sequence | E-score |
| --- | --- |
| ATCAGTTG | 0.284 |
| ACATAATA | 0.382 |
| ATGATACA | 0.322 |
| ATCTATAA | 0.294 |
| AATATTGA | 0.328 |
| ATGTTTGC | 0.27 |
| GTAATAAC | 0.272 |
| ATAATATC | 0.289 |
| ATGTTACA | 0.34 |
| ACATACAG | 0.341 |
| AAAGTTAT | 0.258 |
| TATATCCA | 0.302 |
| ACTGTTTG | 0.287 |
| CAACAATG | 0.286 |
| ATATTAAA | 0.336 |
| TAACACAA | 0.354 |
| GTATGATA | 0.386 |

Set 2
Target: RNA binding protein fox-1 homolog 2, RRM domain, GST-SBP tag (RBFOX2, Homo sapiens, UniProt O43251-10, residues 100-194)
Method: RNA Bind-n-Seq
Form: RNA
Medium: in vitro
Concentration: 365 nM
Notes: natural RNA segment, single round, ends assumed
Reference: no-protein control
Direction: higher = stronger binding
Constant ends, left off below: GGGAGUUCUACAGUCCGACGAUC … UGGAAUUCUCGGGUGCCAA
Construct (chain): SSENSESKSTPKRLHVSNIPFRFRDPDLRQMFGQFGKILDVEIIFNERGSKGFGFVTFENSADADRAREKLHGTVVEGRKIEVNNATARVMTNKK
| Sequence | RBNS enrichment (R) |
| --- | --- |
| ACGUUUCUACCCUUCAAUUAGCUGCACUGUUUUCUAAUGUGCUGUAGAGUUUGGAAAUAAUUUAUGCAAGUGUUUGGUUCCCAUGUUUACAAUUUUUACAGCUUUCCUAG | 2.91 |
| GGUGUUUGAUCCCUGCCCAGUGUUGUCGCACAGGGGAAGGGCAGAUACCAAGACCUGUCUGUUGGAUCUGUUUUGUUGAGAUAAACUGAUGUCCUUACAUUUCAUUUGUA | 0.458 |
| AAUUCCUAAUUUCUCUAGAUAUUUAAGAAUGGCACACACUUUAAAUAUUUAUGGGUGAAUUGAUGCCACAAAAGUAAUAUGAUUGCCCACCUCAACCUGGCAUUCUGUGU | 0.899 |
| AGAAUGAGUAAGUUAACAGCCAGAGACAGACACUGUGCAGGCAUUGCAAAUAGAUGGAAUUACAGCAAAAUGUGCUCAAUGUAUUUGCCUGCUUACAACACUGGGAGAUG | 0.422 |
| CUCCUAAGUUCCAGAGGCCCCACUGUUCCAGUUUCAAGCCUUCAUUUUGGAGUCUGUUUGGGAACUUUUAAGACUUCAAAGCAAAGUUAGCUACCAGCAAUUUCUGUAAA | 0.302 |
| GUGUUGACUGUGUCAUUAGUCCUUUGUCUAAGUAGGGCCAGGGCACCGUAUUCCUCUCCCAGGUGUUUGUGGGGCUGGAAGGACCUGCUCCCACAGGGGCCAUGUCCUCU | 0.385 |
| GUUGUCAAUGGGCUCCUGAUGCCCAUAUUCUGGGGAACCUUAGAUACUGCCAUAGAAGCUAAAAGCACCCUAGCUUUCUUAGACAAUCCACUUAGCUAUCUGAAACUUGA | 1.02 |
| UUCCCGUGACAGGAAACGACCUUGUGUUCUGAGGAGAGCGUGAAGGCUGUGCCUGCCCUGCCAGUGCAGGGAGCUGUCCCGCACUUGAGCAGUGUCAGAGAUUCUUGCUU | 0.268 |

Set 3
Target: Ras GTPase-activating protein-binding protein 1, C-terminal RGG region (G3BP1, Homo sapiens, UniProt Q13283)
Sequence of UniProt Q13283 (whole entry, looked up): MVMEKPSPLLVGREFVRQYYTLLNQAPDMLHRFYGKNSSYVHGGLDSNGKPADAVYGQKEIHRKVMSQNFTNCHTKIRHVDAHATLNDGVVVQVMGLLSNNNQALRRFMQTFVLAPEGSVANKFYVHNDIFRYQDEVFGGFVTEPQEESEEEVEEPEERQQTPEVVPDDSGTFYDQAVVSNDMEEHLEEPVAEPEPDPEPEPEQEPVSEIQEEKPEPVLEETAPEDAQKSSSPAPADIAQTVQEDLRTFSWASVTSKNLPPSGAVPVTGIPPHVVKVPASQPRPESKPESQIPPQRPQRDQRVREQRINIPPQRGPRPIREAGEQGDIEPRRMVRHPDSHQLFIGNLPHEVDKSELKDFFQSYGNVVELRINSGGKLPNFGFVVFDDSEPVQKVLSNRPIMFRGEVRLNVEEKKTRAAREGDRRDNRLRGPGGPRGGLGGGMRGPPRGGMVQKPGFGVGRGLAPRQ
Method: RNA Bind-n-Seq
Form: RNA
Medium: in vitro
Concentration: 1 µM
Notes: whole 134-nt RNA, ends assumed
With: 150 mM KCl
Reference: input library
Direction: higher = stronger binding
Constant ends, left off below: GGGAGUUCUACAGUCCGACGAUC … UGGAAUUCUCGGGUGUCAAGG
| Sequence | log2 enrichment |
| --- | --- |
| GCAGGAAGUAAAAACAAAUGGCAAUGCUUCGGAUAGUGGCAGGGGUGGGGGUUGCUAAGGAAAGGGUGGGAUGGGAGUGGGUAAAGAGUU | 2.41 |
| UCCUGUGCUACACAUCGUAUGUACCGAAUCGGGUUUUUUGGGGUUUUUUGGUUUUUUGGAAAGUAUUAUGUUACGCCGUUCGGAUCUGCA | -0.363 |
| CAAGUCCUGUGCUACACAUCGUAUGUACCGAAUCGGAAAAAGGAAAGGAAAAAGGAAAGUAUUAUGUUACGCCGUUCGGAUCUGCACUUC | -1.86 |
| UCCUGUGCUACACAUCGUAUGUACCGAAUCGGGGAAAAAGGAAAAAGGGGAAAAAGGGGAAAGUAUUAUGUUACGCCGUUCGGAUCUGCA | -0.801 |
| CUGUGCUACACAUCGUAUGUACCGAAUCGGAAAAAAAGGGGAAAAAAAGGAAAAAAAGGGGAAAGUAUUAUGUUACGCCGUUCGGAUCUG | -1.4 |
| GCAGGAAGUAAAAACAAAUGGAAAUGCUUCGGAUAGUGGUAGGGGUGGGGGUUGCUAAGGAAAGGGUGGGAUGGGAGUGGGUAAAGAGUU | 2.01 |
| CACAGACAACACGCACCCACACAGACACAGAGGGAAGGGGUUGGGCUGGGGACAGGGUGCACAGCAGGGCGGGGUAGGACCCCAGCCCCU | -0.318 |
| CACAGACAACACGCACCCACACAGACACAGAGGGAAGGGGUUGGGAUGGGGACAGGGUGCAAAGCAGGGCGGGGUAGGACCCCAGCCCCU | -0.174 |
| AGUCCUGUGCUACACAUCGUAUGUACCGAAUCAAAUUUUUAAACCCAAAUUUUUAAAAAAGUAUUAUGUUACGCCGUUCGGAUCUGCACU | -1.23 |

Set 4
Target: Interferon regulatory factor 5, full length, phosphomimetic (IRF5, Homo sapiens, UniProt Q13568-2, residues 1-514, K96S/S451D/S453D/S456D/S462D)
Method: protein-binding microarray
Form: double-stranded DNA, one strand shown
Medium: in vitro
Concentration: 250 nM
Notes: 60-bp whole probe
With: salmon DNA 0.4 mg/ml
Reference: random background probes
Direction: higher = stronger binding
Constant ends, left off below: GCCTAGCAC … GTCTTGATTCGCTTGACGCTGCTG
| Sequence | log fluorescence [z-score] |
| --- | --- |
| TCAATATTATATCTGTGACTGTGCTAG | 0.947 |
| ACCTATGTGTACCACTAGACGTGCTAG | -0.417 |
| GACGGACTGGGGTATCGAGACGTGCTA | 0.0538 |
| GACGATATCGGGACTGAAGACGTGCTA | 1.07 |
| ACCCGAGTCCCTATCTCCTCGTGCTAG | -0.382 |
| TCACATACGAGTTTCCATTTGTGCTAG | 1.31 |
| TTCTGAGCCTGGGTGGATGGGTGCTAG | -0.703 |
| GACGGTTCCGGTTTCTGGACGTGCTAG | 1.57 |
| GACGATTCCCTTTTCCTGACGTGCTAG | 0.124 |
| TTAGGACTGGAGACTGGGTTAGTGCTA | -0.591 |
| TTAGCTTTCAGTTTCGATTAGTGCTAG | 11.2 |
| TCACATGTAAATAATCAGACTGTGCTA | 0.422 |
| GTCACATTGCACAATCTTAATGTGCTA | 0.704 |
| GACGGTATCGACTCTGGGGACGTGCTA | 1.82 |
| GACGGACGGCTTCTCCTGACGTGCTAG | -0.58 |
| GACGGTCTCGGTATGGGGACGTGCTAG | 0.167 |
| GACGATTTCAGTCTCGTGACGTGCTAG | 1.15 |
| TTATGACTGGACACTGGGTTAGTGCTA | 0.0731 |
| GACGGACTGGGACTGGTGACGTGCTAG | -0.635 |

For quick reference, copied from above (set 4):
| Sequence | log fluorescence [z-score] |
| --- | --- |
| TCACATGTAAATAATCAGACTGTGCTA | 0.422 |
| GACGGTCTCGGTATGGGGACGTGCTAG | 0.167 |
| GACGGACGGCTTCTCCTGACGTGCTAG | -0.58 |
| TTAGGACTGGAGACTGGGTTAGTGCTA | -0.591 |
| ACCTATGTGTACCACTAGACGTGCTAG | -0.417 |
| TTATGACTGGACACTGGGTTAGTGCTA | 0.0731 |
| GACGATATCGGGACTGAAGACGTGCTA | 1.07 |
